Published values gathered from unrelated publications.
Each numbered part is a random draw from the data of one study; scales do not carry over between parts. Changes are numbered by the printed parent chain.

Series 1 — technique: RNA Bind-n-Seq; form: RNA; medium: in vitro; tested at: 200 nM; notes: whole 134-nt RNA, ends assumed; added: 150 mM LiCl; relative to: input library; reading: higher = stronger binding; all molecules: 7-deaza-guanosine replaces G
Target: Fragile X messenger ribonucleoprotein 1, C-terminal low-complexity region (Fmr1, Mus musculus, UniProt P35922)
Constant ends, left off below: GGGAGUUCUACAGUCCGACGAUC … UGGAAUUCUCGGGUGUCAAGG
Sequence | log2 enrichment
CUCAAGUCCUGUGCUACACAUCGUAUGUACCGAAUCGGUUUUUUUGGUGGAGGAAAGUAUUAUGUUACGCCGUUCGGAUCUGCACUUCCA | -0.23
AGUCCUGUGCUACACAUCGUAUGUACCGAAUCGGUUUUUGGAAAAAGGUUUUUUUGGAAAGUAUUAUGUUACGCCGUUCGGAUCUGCACU | -3.18
AAGUCCUGUGCUACACAUCGUAUGUACCGAAUCGGUUUGGAAAAAGGUUUUUUUGGAAAGUAUUAUGUUACGCCGUUCGGAUCUGCACUU | -2.68
AGUCCUGUGCUACACAUCGUAUGUACCGAAUCAAACCCAAAUUUUUUUAAACCCAAAAAAGUAUUAUGUUACGCCGUUCGGAUCUGCACU | 0.114
GCAGGAAGUAAAAACAAAUGGAAAUGCUUCGGAUAGUGGCAGGGGUGGGGGUUGCUAAGGAAAGGGUGGGUUGGGAGUGGGUAAAGAGUU | 1.49
CAAGUCCUGUGCUACACAUCGUAUGUACCGAAUCGGGUUUUGGUUUUGGUUUUGGAAAGUAUUAUGUUACGCCGUUCGGAUCUGCACUUC | -1.66
GAUGAUUACUAUGGUUAUGAUUAUCACGACUAUCGUGGAGGCUAUGAAGAUCCCUACUACGGCUAUGAUGAUGGCUAUGCAGUAAGAGGA | -2.13
CCUGUGCUACACAUCGUAUGUACCGAAUCGGGGCCCCCCGGGGCCCCCCGGGCCCCCCGGGAAAGUAUUAUGUUACGCCGUUCGGAUCUG | -2.58
CACAGACAACACGCACCCACACAGACACAAAAGGAAGGGGUUGGGAUGGGGACAGGGUGCACAGCAGGGCGGGGUAGGACCCCAGCCCCU | 0.102
UGGCCCUGGUGGCAUGCGGGGAGGAAGAGGUGGCCUCAUGGAUCGUGGUGGUCCCGGUGGAAUGUUCAGAGGUGGUCGUGGUGGAGACAG | -0.722
CAAGUCCUGUGCUACACAUCGUAUGUACCGAAUCGGGAAAGGGAAAGGAAAGGGGAAAGUAUUAUGUUACGCCGUUCGGAUCUGCACUUC | -0.433

Series 2 — technique: RNA Bind-n-Seq; form: RNA; medium: in vitro; tested at: 365 nM; relative to: no-protein control; reading: higher = stronger binding
Target: RNA binding protein fox-1 homolog 2, RRM domain, GST-SBP tag (RBFOX2, Homo sapiens, UniProt O43251-10, residues 100-194)
Notes: natural RNA segment, single round, ends assumed
Constant ends, left off below: GGGAGUUCUACAGUCCGACGAUC … UGGAAUUCUCGGGUGCCAA
Target sequence (chain): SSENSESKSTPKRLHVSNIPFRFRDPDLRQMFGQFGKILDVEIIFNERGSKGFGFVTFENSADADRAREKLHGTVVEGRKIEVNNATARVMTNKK
Sequence | RBNS enrichment (R)
GCCCACACUUACACCUCAGAAACUUAGCAUGCAUCCUGAAAUGAAGCCUUUCAUAGACUCAUAGGGAAUAAAGCCAAAUGUAGCUCUUACUCUUUAUAAAAUAAAGUGUU | 3.45
CAUGGGGAUUAAAGCUAUGGUUAUAUUAGCACCAAACUUCUACAAACCAAGCUCAGGGCCCCAACCCUAGAAGGGCCCAAAUGAGAGAAUGGUACUUAGGGAUGGAAAAC | 0.273
ACACUGGAAUGAUUUAGCUUUGUUAUUGCAUGUCUUGUGUUAAGUGUUUUGUAUAUGAUAUUGCAGUUUUACUAGGCAAAUCUUCAAAAGAUGCACUUUAGGAAACGAAA | 1.31
AUUCUUAGUAUGCGUUGCAUCGGGGAUUUUAGACCAGGCUGCCUCUGAAAUGGUUAUUUGCAGCCCAAUUCCUCAGUGUCAAUGAUCCUUUCUGAGGCUUGGCUUUAGAA | 4.02
AGGGCUGGGCCACUGCACAGUUUGUCUGUCCCCGUUGGACUCUUGAGCUCCUCUGGGAAGGCCUUUCCCUUGCCGGCUGUGCAUUGUGGCCAGGACUGGUAGCAACAGAG | 0.343
GUGGGGGUCUCCCUACCUACGACUGAGGGCUUUUUAAACUUGGUGCGAAGUUGAACUUUUUUAAGGGGAUAAAAUAAAGAGAAUACAGUUUGACUUUUUGGAAUUUAACA | 0.544
GAAAGCUAACUUCUAACUUCCUUCCGCUGAGAUGUCUUCUGCUGCCUCAUUUGCAAGAUGUGCAAGCUUAAUGUCUUCUUCACCAUAAAGCAACAUGGAAAUAACCAUAG | 0.328
AUCUUUUUAACAGCACUGUAGCAUUUUUCUUCGUUUAGAACCUUUACUGACUCCAUUGAGUCCCUGAGCAUCUGUACAUAGCCUUCACCACCCCCAGUCUCAAUCCUGUG | 0.837
AGUUAAUCAACAAGUAUUUAUUAUGUGCUGAUAUCUUUGUUUUAGAUGCUUUAAAGGAGACAGGAAUAUAAUUAUUGAGUAUAGAAGCAUCAGAAACUAUUAAAAUUAAG | 0.689
GCUUCUGAGUUUUAUAUUGUUUGCAUCCCAUUGCCCUCAAUAAAGAAAGUCCUUUUUUUAAGUUCUGAAUUUGACGUAGAGUGUUUCUUGCUCCUUCUGAAAUGCUUGCU | 0.832
CAUUAAUUAAGAGGUUGAAAAGAAGUACAGUGUAAGAAAACCCAGCAUUUUAAUUAUUUGCAAAUUAAGGUGCCACAGACACAGACUUAGUGGUAUGUAAAUGUUGACUC | 0.687
AGCAUCUUCAAACUAAAGACUCCAAAAUGCUAACUCAGAAAGAAAGAAAAAACCCGUUUUCAAUUCUAAUGAAACAGCAACAACAUUUUUUUUAAUUAAAAAAAAAAUCA | 0.76

Series 3 — technique: protein-binding microarray; form: double-stranded DNA, one strand shown; medium: in vitro; tested at: 940 nM top; notes: 60-bp whole probe; added: salmon DNA 0.4 mg/ml; relative to: random background probes; reading: higher = stronger binding; constant ends, left off below: GCCTAGCAC … GTCTTGATTCGCTTGACGCTGCTG
Target: Interferon regulatory factor 5, full length, phosphomimetic (IRF5, Homo sapiens, UniProt Q13568-2, residues 1-514, S451D/S453D/S456D/S462D)
Sequence | fitted relative affinity [z-score]
TCAGCTTTGCAGATAAAACTGTGCTAG | 0.213
TTAGATTTCAGTTCCGAGTAGTGCTAG | 1.34
TTAGATTGCGGGACTGGATTAGTGCTA | -0.274
GACCGTCTCGGTATCGGGACGTGCTAG | 4.56
TCATTTTTTTTTTTGGAACTGTGCTAG | 1.12
GACGTTTTCGACTTTCGGGACGTGCTA | 1.46
GACAGTATCGGGTATCGGGACGTGCTA | 5.75
TCACCTCTCCTCTCAGGAACTGTGCTA | 0.242
GCCGGTTTCCTACTGCTGACGTGCTAG | 0.709
GACTGTATCCTTATCCTGACGTGCTAG | 0.368
GACGGTATCGGTTGCGGGACGTGCTAG | 9.33
GACGAACGGGGGTTTCGAGACGTGCTA | 4.04
TCCTGTATGGATGTGTTTTAGTGCTAG | 0.206
TTTCATATATATATGAATATGTGCTAG | 5.16
GACGGTTTCAGTATCGGGACGTGCTAG | 6.64
CTTGCTCTGTGCATAGGTCTGTGCTAG | -0.528
TTAGGTATCTGTCTCGGTTAGTGCTAG | 4.17

Series 4 — target: UBE2I UBC core domain (UniProt P63279); technique: yeast two-hybrid; medium: yeast; notes: mostly zero background; relative to: not given; reading: higher = stronger interaction
B1: TRIM55 RING domain (UniProt Q9BYV6); chain TMDNLEKQLICPICLEMFTKPVVILPCQHNLCRKCASDIFQASNPYLPTRGGTTMASGGRFRCPSCRHEVVLDRHG
B2: RNF175 RING domain (UniProt Q8N4F7); chain LPTRSLSDNICAVCGQKIIVELDEEGLIENTYQLSCNHVFHEFCIRGWCIVGKKQTCPYCKEKVDLKRMIS
B3: RNF43 RING domain (UniProt Q68DV7); chain SGSSCSSAPVCAICLEEFSEGQELRVISCLHEFHRNCVDPWLHQHRTCPLCMFNITEGDSFS
B4: TRIM52 RING domain (UniProt Q96A61); chain PMQTLQEEAVCAICLDYFKDPVSISCGHNFCRGCVTQLWSKEDEEDQNEEEDEWEEEEDEEAV
B5: RNF112 RING domain (UniProt Q9ULX5); chain QPMAPRELPTCSICLERLRDPISLDCGHDFCIRCFSTHRLPGCEPPCCPECRKICKQKRGLR
B6: TRIM15 RING domain (UniProt Q9C019); chain SLKVVHELPACTLCAGPLEDAVTIPCGHTFCRLCLPALSQMGAQSSGKILLCPLCQEEEQAETPMA
B7: UBE4A RING domain (UniProt Q14139); chain LQQQEEETYADACDEFLDPIMSTLMCDPVVLPSSRVTVDRSTIARHLLSDQTDPFNRSPLTMDQIRPNTELKEKIQRWLAERKQQKEQLE
B8: NSMCE1 RING domain (UniProt Q8WV22); chain RETYPDAVKICNICHSLLIQGQSCETCGIRMHLPCVAKYFQSNAEPRCPHCNDYWPHEIPKV
B9: MSL2 RING domain (UniProt Q9HCI7); chain LLPYFRQSLSCCVCGHLLQDPIAPTNSTCQHYVCKTCKGKKMMMKPSCSWCKDYEQFEENKQ
Molecule | lacZ reporter activity
B1 (TRIM55 RING domain) | 0
B2 (RNF175 RING domain) | 0
B3 (RNF43 RING domain) | 0
MANWVFCNRCFQPPHRTSCFSLTNCGHVYCDACLGKGKKNECLICKAPCRTVLLSK (RNF212 RING domain (UniProt Q495C1)) | 0
B4 (TRIM52 RING domain) | 0
B5 (RNF112 RING domain) | 0
B6 (TRIM15 RING domain) | 0
B7 (UBE4A RING domain) | 0
B8 (NSMCE1 RING domain) | 0
KIKDLNEHIVCCLCAGYFVDATTITECLHTFCKSCIVKYLQTSKYCPMCNIKIHETQPLL (PCGF1 RING domain (UniProt Q9BSM1)) | 0
B9 (MSL2 RING domain) | 0

Series 5 — technique: protein-binding microarray; form: double-stranded DNA, one strand shown; medium: in vitro; tested at: not given; reading: higher = stronger binding
Target: Cyclic AMP-responsive element-binding protein 1 (CREB1, Homo sapiens, UniProt P16220, residues 1-327, full length assumed)
UniProt P16220, sequence (whole entry, looked up): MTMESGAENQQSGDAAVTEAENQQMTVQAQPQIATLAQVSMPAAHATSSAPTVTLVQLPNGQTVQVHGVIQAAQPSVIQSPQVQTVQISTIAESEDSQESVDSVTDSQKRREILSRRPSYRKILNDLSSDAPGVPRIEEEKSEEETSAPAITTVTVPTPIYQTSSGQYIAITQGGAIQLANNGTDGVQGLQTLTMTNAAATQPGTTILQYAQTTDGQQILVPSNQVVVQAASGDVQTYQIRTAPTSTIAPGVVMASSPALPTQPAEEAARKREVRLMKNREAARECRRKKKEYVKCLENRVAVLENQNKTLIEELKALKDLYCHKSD
Notes: k-mer, scored over probes, only values ≥0.25
Sequence | E-score
TAAGTAA | 0.26
AAACATA | 0.276
ACGTACG | 0.35
GCATGAC | 0.27
TACATCA | 0.258
ACGTAAA | 0.356
AATGATA | 0.293
AAATATG | 0.262
CGTAACA | 0.327
CGTCACG | 0.48
GTAAGAA | 0.263
TATGTGA | 0.267
ATGATGC | 0.266

Series 6 — target: CCNA2, cyclin fold, Cln2 fusion (human); technique: yeast growth competition, sequencing; medium: yeast; notes: strong parent motif; relative to: not given; reading: higher = stronger binding
Starting sequence: RB1 docking peptide (human); PKPLKKLRFDIEG
Variant | normalised enrichment score
PKPLKKLRFDREG [I11R] | 0.0933
PKPLWKLRFDIEG [K5W] | 1.27
PKPLKKLHFDIEG [R8H] | 0.766
PKPLKKQRFDIEG [L7Q] | 0.285
PKPCKKLRFDIEG [L4C] | 3.3
PKPLKKLDFDIEG [R8D] | 1.57
PQPLKKLRFDIEG [K2Q] | -0.227
LKPLKKLRFDIEG [P1L] | 0.415
PKPLKKLRFDKEG [I11K] | 1.15
PKPLKKLRWDIEG [F9W] | 1.22
PKPLKKARFDIEG [L7A] | 1.15

A few entries again (series 2):
Sequence | RBNS enrichment (R)
CAUGGGGAUUAAAGCUAUGGUUAUAUUAGCACCAAACUUCUACAAACCAAGCUCAGGGCCCCAACCCUAGAAGGGCCCAAAUGAGAGAAUGGUACUUAGGGAUGGAAAAC | 0.273
ACACUGGAAUGAUUUAGCUUUGUUAUUGCAUGUCUUGUGUUAAGUGUUUUGUAUAUGAUAUUGCAGUUUUACUAGGCAAAUCUUCAAAAGAUGCACUUUAGGAAACGAAA | 1.31
AUUCUUAGUAUGCGUUGCAUCGGGGAUUUUAGACCAGGCUGCCUCUGAAAUGGUUAUUUGCAGCCCAAUUCCUCAGUGUCAAUGAUCCUUUCUGAGGCUUGGCUUUAGAA | 4.02
AGGGCUGGGCCACUGCACAGUUUGUCUGUCCCCGUUGGACUCUUGAGCUCCUCUGGGAAGGCCUUUCCCUUGCCGGCUGUGCAUUGUGGCCAGGACUGGUAGCAACAGAG | 0.343
GUGGGGGUCUCCCUACCUACGACUGAGGGCUUUUUAAACUUGGUGCGAAGUUGAACUUUUUUAAGGGGAUAAAAUAAAGAGAAUACAGUUUGACUUUUUGGAAUUUAACA | 0.544
GAAAGCUAACUUCUAACUUCCUUCCGCUGAGAUGUCUUCUGCUGCCUCAUUUGCAAGAUGUGCAAGCUUAAUGUCUUCUUCACCAUAAAGCAACAUGGAAAUAACCAUAG | 0.328
AUCUUUUUAACAGCACUGUAGCAUUUUUCUUCGUUUAGAACCUUUACUGACUCCAUUGAGUCCCUGAGCAUCUGUACAUAGCCUUCACCACCCCCAGUCUCAAUCCUGUG | 0.837
AGUUAAUCAACAAGUAUUUAUUAUGUGCUGAUAUCUUUGUUUUAGAUGCUUUAAAGGAGACAGGAAUAUAAUUAUUGAGUAUAGAAGCAUCAGAAACUAUUAAAAUUAAG | 0.689
GCUUCUGAGUUUUAUAUUGUUUGCAUCCCAUUGCCCUCAAUAAAGAAAGUCCUUUUUUUAAGUUCUGAAUUUGACGUAGAGUGUUUCUUGCUCCUUCUGAAAUGCUUGCU | 0.832
